Measured values gathered from unrelated publications.
Every numbered part comes from another study and shows a few of its results, in no order.

Sample 1
Target: RNA binding protein fox-1 homolog 2, RRM domain, GST-SBP tag (RBFOX2, Homo sapiens, UniProt O43251-10, residues 100-194)
Method: RNA Bind-n-Seq
Molecule type: RNA
Sample: in vitro
Concentration: 365 nM
Notes: natural RNA segment, single round, ends assumed
Baseline: no-protein control
Reading: higher = stronger binding
Endpoint: RBNS enrichment (R)
Shared flanks, not repeated: GGGAGUUCUACAGUCCGACGAUC … UGGAAUUCUCGGGUGCCAA
Residues (chain): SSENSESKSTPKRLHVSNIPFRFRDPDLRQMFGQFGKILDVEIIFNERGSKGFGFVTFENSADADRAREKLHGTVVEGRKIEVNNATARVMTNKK
GGACGAGUGUGAUUUUUUGUUGAGUGCAUUACAUCUUCACAUGGGGGCGGGGAGGUCUUUUCCCUGCCCAUGUUUUUUUGUGCUUAUUAGAGGUGCAAACAGCGAGCGAU: 0.319
CACUGCCACGUGGACCCCUAUGCGUGCGCAGAGGGCAGCGGGUAUGUGGCUUUGCAGGCCCGGCCCAUGCCUCUGCAGCCACACAGCACAACGUCUCUACUGUGCCUAUU: 0.292
AUAGCUGUUUUAGCCGAGGGACUCGAUACCGACGUCCCCAGAUAUAGCUAGGCUAAGUCAAGAUCAACAGUCCGGGGUUGGUGGUGUUGGAUGAAACAUUCAUUUUUACC: 0.256
UCAGCUGACAUCAUGAAUAGAAUGAGGUCUGCUUCAGAACCUUUUGUUGUCAACUGUCACUGUUUCUUCCAAAAGUCACAAUUUGUACAAGAACCUUUGCUUUCCUUAGA: 0.342
CACCGUCACACACGCCCCUUUUGUGUUUUGGUUCAAGUUUCUCAGAGCCCCUCAGAGCUUCUACAUCUGUGCAUCAGAAAUCUCACAGCCUUCUCAUGCUGCCGGCUCAU: 0.625
UAAAAAUAAAAUGGCAAUUUUAGCACAAUGUUAAGAAAAUGCCCUACUUCAUUACCGCACUUUCUUGUAUUAAUAGUAUCUUAAAGCUGUUUUUAUUUUUCUUAGAAAUG: 0.304
GGGAGGAGGACUUGGCAACUGGCUUUUCUCCUGUGGAGUCGUCACACGCCAUCCAGCAGCGCUAAGGUGGACAUGGGAUUCCUCCCUGCGAUGCGUGUCUUUCCCACGCA: 0.611
UAUAAUUGGGUAGUUUUGUUAAUAUUUUUUUAUCUUGUCCUUGAUAUUCCAAAAGUUACAGGAUAGAUGUAAAUCAAUAAAGUCAUUUGGCUGUGUUUUAGACAGCUCCA: 0.56

Sample 2
Target: Histone acetyltransferase KAT6A, both winged helices, GST fusion (KAT6A, Homo sapiens, UniProt Q92794, residues 1-181)
Method: protein binding microarray
Molecule type: double-stranded DNA, one strand shown
Sample: in vitro
Concentration: not given
Notes: 8-mer, flanks averaged, mean of 2 arrays, mostly near background
Baseline: not given
Reading: higher = stronger binding
Endpoint: E-score
Construct (chain): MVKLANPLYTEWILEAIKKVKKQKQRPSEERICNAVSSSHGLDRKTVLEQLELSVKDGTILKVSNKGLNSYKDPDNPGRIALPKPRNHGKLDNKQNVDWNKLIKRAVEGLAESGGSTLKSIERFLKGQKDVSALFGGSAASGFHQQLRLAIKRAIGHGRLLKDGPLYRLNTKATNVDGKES
ACGCGATA: 0.209
AGCCAGAG: -0.16
AATTCTGC: 0.0455
TGGAACCA: 0.0373
AAGTGACC: -0.175
GGCTGCGA: 0.0297
ATCACAAC: 0.0233
GATTGTCC: -0.0512
TTATGGAA: -0.158
CGTGCCAA: -0.0913
AACTCTGT: 0.0353
CCGCCCGA: 0.232
CGGCCACC: 0.196
TATCGAAA: 0.0349
CACGGCAA: 0.305
AACGACAA: 0.134
CTCGTTAA: -0.0689
GGTTGTAA: -0.0835
ACCTTTGC: 0.00726
CCAAAAAG: -0.0729
CGGTATTC: 0.212
AATCCTCT: -0.191
ACGCTTGG: 0.0196
GAACGTGA: 0.12
ATCCAGTA: -0.183

Sample 3
Target: Interferon regulatory factor 5, full length, phosphomimetic (IRF5, Homo sapiens, UniProt Q13568-2, residues 1-514, S451D/S453D/S456D/S462D)
Method: protein-binding microarray
Molecule type: double-stranded DNA, one strand shown
Sample: in vitro
Concentration: 940 nM top
Notes: 60-bp whole probe
Together with: salmon DNA 0.4 mg/ml
Baseline: random background probes
Reading: higher = stronger binding
Endpoint: fitted relative affinity
Shared flanks, not repeated: GCCTAGCAC … GTCTTGATTCGCTTGACGCTGCTG
GACGCTTTCGGTCTCGGGACGTGCTAG: 6.44 z-score
GTAGTAATGAATATAATACCGTGCTAG: -0.747 z-score
CATCTTCTGGATTTTTTAGCGTGCTAG: 0.283 z-score
TCAAGTGTGCCATATTTAACTGTGCTA: 0.137 z-score
GACGTTCTCGGTATCGGGACGTGCTAG: 4.97 z-score
TTAGGTATAGGGTATCGGTTAGTGCTA: 1.82 z-score
TTTCTAATGTTTTTTAAAGTGTGCTAG: 1.99 z-score
GACGATTGCGGGTTTCGAGACGTGCTA: 2.22 z-score
TTAGGATTCGGTTCCGGTTAGTGCTAG: 2.53 z-score
TTAGGTTTCGACTATCGGGTAGTGCTA: 9.71 z-score
TTAGATATCAGTACCGATTAGTGCTAG: 0.078 z-score
GACGATATCGGATATCGAGACGTGCTA: 0.0989 z-score
TGAGGTATCGGTCTCGGTTAGTGCTAG: 6.89 z-score
TTAGGACTGGTGTTTCGGTTAGTGCTA: 2.14 z-score
TAAGGACTGCTTATCCTTTAGTGCTAG: -0.0484 z-score
TCATAAAATGGACACTGTACTGTGCTA: -0.0518 z-score
TTATGACTGGGTTTCGGTTAGTGCTAG: 6.57 z-score
GAAGTTCTTTTTTTCAAGAAGTGCTAG: 0.514 z-score
TTGGTTCTTATCCTTCCCCTCGTGCTA: 0.69 z-score

Sample 4
Target: Sal-like protein 4, full length isoform B (SALL4, Homo sapiens, UniProt Q9UJQ4-2, residues 1-616)
Method: universal PBM
Molecule type: double-stranded DNA, one strand shown
Sample: in vitro
Concentration: not given
Notes: 8-mer, flanks averaged, mean of replicates
Reading: higher = stronger binding
Endpoint: E-score
AGACTTCA: -0.0634
CCTCGTCG: -0.139
CGGAGAAA: -0.0845
ACACTCAA: 0.0906
CCCCCACA: -0.0541
TACACAAA: 0.337
ACAGAGGT: 0.0248
TAGGCCGA: -0.247
CGCCACCG: -0.315
CCTAATAG: 0.0183
AGATTTCG: -0.0193
AGCTTACG: -0.0154
GATGGGCA: -0.00132
ACTTTGGG: -0.111
ACCATTCG: 0.0722
ATCTCTCG: -0.0953
AGAACGCG: -0.207
CGACCTTC: -0.0763
ACCAAAGA: 0.145
ACCAGGTG: -0.283
AATCAGCG: -0.161
ATTCCGTG: 0.00712
AAGTCCCG: -0.217
ATTTACCA: 0.239
CCGCTAAG: -0.0259

Repeated from above (sample 2):
TGGAACCA: 0.0373
GGTTGTAA: -0.0835
GGCTGCGA: 0.0297
GATTGTCC: -0.0512
CACGGCAA: 0.305
AAGTGACC: -0.175
CGTGCCAA: -0.0913
